Measurements pooled from the literature.
Protocols differ between the studies behind these lines. ± marks the error that the study gave.
CYP2C8: Cytochrome P450 2C8 (CYP2C8, Homo sapiens, UniProt P10632)
Sequence of UniProt P10632 (whole entry, looked up): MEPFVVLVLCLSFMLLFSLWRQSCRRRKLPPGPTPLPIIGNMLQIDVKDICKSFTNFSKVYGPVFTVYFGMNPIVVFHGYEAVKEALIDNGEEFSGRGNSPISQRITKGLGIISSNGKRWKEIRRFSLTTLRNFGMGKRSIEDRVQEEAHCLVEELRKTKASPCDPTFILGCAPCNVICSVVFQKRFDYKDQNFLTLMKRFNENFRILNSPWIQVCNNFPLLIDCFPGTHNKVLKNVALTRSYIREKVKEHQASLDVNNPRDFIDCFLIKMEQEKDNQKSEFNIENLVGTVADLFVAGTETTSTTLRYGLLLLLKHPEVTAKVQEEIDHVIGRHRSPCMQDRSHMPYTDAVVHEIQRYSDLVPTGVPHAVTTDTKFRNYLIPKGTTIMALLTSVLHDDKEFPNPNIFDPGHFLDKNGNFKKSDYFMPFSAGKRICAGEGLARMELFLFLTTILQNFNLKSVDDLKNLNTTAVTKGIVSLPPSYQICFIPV
UCHL1: Ubiquitin carboxyl-terminal hydrolase isozyme L1 (UCHL1, Homo sapiens, UniProt P09936)
Sequence of UniProt P09936 (whole entry, looked up): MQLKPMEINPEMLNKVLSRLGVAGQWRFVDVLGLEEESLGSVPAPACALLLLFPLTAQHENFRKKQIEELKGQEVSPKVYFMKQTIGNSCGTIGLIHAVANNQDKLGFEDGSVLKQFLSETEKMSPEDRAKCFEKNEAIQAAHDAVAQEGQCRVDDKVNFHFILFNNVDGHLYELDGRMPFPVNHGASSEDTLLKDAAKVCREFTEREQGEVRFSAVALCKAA
Sequence of UniProt Q12809 (whole entry, looked up): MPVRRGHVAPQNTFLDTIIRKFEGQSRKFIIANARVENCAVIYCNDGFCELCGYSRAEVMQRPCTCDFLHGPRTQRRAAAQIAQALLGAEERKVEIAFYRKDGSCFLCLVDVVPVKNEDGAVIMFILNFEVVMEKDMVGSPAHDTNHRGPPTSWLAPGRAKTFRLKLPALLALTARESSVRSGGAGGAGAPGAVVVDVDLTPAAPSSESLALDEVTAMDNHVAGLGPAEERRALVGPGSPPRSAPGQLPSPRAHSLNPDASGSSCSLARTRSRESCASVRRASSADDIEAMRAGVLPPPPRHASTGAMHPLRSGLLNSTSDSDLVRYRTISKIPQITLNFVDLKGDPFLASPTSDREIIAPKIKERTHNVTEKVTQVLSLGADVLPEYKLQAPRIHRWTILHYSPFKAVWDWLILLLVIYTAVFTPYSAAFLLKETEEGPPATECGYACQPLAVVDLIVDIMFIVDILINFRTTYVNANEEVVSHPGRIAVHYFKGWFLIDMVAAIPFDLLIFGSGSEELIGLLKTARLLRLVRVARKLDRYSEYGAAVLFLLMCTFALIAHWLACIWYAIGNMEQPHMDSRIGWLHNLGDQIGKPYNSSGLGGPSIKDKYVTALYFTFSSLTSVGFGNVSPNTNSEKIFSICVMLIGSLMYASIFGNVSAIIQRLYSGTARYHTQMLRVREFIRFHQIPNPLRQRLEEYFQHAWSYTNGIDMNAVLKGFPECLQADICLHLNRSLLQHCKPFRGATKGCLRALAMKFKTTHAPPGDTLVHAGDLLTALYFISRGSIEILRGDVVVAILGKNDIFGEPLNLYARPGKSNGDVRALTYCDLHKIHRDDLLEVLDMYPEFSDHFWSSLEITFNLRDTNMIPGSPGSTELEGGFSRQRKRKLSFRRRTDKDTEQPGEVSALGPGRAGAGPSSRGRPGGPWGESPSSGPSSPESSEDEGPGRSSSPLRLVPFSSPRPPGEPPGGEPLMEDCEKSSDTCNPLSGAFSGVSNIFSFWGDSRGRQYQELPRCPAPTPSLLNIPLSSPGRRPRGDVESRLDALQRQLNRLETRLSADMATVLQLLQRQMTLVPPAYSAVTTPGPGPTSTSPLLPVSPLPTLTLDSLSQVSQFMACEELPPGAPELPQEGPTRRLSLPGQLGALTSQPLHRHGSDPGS
Sequence of UniProt P08183 (whole entry, looked up): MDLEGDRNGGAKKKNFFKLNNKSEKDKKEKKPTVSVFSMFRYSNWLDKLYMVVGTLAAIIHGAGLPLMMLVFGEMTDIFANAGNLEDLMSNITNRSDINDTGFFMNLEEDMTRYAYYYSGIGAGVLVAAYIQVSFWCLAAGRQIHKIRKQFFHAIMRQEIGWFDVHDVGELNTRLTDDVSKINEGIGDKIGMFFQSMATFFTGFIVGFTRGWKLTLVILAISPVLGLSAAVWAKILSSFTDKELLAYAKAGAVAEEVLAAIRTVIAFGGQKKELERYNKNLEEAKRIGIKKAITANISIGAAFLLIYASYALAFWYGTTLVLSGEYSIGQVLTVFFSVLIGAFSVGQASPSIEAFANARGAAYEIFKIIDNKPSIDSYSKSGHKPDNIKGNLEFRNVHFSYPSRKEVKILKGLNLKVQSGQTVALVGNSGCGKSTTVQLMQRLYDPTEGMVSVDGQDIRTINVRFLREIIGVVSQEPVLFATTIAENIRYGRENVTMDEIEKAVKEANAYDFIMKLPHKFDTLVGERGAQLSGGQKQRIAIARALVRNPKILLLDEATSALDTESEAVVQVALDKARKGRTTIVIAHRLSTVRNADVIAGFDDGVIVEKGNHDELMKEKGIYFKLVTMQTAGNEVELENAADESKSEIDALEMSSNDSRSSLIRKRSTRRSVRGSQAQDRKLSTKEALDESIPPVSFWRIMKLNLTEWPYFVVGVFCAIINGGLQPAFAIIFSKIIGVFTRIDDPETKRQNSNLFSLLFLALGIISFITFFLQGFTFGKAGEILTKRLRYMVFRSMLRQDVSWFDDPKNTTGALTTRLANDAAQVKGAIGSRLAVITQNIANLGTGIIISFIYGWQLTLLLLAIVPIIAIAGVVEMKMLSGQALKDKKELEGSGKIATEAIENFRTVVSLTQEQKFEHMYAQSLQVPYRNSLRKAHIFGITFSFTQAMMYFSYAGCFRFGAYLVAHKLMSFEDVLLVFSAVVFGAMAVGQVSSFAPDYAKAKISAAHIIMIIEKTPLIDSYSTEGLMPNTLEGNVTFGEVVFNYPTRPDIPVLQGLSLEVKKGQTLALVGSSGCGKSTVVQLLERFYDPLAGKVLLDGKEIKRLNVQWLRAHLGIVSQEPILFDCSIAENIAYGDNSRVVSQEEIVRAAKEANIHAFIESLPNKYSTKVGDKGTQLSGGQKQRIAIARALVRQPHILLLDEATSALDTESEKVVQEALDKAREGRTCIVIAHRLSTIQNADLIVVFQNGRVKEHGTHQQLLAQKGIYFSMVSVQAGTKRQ
Sequence of UniProt Q9UNU6 (whole entry, looked up): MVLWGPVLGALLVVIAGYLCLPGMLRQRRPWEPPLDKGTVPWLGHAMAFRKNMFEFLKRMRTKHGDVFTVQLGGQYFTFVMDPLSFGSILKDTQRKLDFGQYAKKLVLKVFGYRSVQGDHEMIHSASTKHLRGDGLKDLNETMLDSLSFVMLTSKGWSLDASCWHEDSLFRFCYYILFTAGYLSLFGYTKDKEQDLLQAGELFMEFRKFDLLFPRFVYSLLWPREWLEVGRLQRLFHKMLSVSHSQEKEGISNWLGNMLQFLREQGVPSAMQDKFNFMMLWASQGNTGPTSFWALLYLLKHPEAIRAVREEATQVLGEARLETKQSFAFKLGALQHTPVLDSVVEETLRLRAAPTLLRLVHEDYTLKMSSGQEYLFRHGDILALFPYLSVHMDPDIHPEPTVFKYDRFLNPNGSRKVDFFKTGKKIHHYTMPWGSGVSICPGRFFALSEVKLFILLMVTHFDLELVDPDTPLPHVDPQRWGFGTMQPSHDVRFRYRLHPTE
Sequence of UniProt P50226 (whole entry, looked up): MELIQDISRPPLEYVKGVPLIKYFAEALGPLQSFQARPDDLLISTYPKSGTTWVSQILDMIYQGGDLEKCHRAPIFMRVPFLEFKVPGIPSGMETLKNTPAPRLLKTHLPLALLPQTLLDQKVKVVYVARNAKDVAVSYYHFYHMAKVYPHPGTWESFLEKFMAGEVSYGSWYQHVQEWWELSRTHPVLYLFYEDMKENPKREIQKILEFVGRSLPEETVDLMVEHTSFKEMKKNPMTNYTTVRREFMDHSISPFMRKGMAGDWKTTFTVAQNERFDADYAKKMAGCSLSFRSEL
Sequence of UniProt P04233 (whole entry, unmodified, looked up): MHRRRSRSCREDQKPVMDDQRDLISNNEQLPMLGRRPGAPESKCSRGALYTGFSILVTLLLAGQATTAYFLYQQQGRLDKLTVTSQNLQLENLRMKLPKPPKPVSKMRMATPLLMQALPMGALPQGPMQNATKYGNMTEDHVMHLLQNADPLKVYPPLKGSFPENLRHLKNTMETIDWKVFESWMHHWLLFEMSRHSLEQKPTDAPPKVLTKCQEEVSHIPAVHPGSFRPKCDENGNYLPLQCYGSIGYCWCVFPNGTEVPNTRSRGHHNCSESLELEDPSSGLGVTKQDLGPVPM
Sequence of UniProt Q9HAW7 (whole entry, looked up): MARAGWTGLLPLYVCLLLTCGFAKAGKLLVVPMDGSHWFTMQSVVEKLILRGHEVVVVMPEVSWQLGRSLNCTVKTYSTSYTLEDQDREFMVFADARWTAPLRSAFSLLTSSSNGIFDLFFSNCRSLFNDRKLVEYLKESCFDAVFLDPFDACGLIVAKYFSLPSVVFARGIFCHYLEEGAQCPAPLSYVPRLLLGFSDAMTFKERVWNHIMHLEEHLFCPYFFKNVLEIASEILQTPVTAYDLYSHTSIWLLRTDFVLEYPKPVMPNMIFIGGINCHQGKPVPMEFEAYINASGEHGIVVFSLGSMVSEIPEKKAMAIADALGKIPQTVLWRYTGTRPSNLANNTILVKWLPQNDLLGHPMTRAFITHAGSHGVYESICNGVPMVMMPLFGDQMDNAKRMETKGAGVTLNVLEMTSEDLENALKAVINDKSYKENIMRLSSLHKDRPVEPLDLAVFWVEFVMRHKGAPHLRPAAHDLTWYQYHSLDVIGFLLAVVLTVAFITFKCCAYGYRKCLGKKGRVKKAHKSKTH
Sequence of UniProt P61823 (whole entry, looked up): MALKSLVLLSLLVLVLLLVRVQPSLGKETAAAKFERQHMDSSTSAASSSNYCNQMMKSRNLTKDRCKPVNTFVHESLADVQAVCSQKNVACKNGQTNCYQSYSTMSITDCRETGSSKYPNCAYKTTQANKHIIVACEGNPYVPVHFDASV

Structure (SMILES) | target or system | test | system | setting | how to read | quantity | value
Cc1cc(Nc2ncnc3ccc(NC4=NC(C)(CO)CO4)cc23)ccc1Oc1ccn2ncnc2c1 (stereo not shown) | CYP2C8 |  | human, plasma | oral, 300 mg tucatinib single dose, day 1, arithmetic mean |  | Cmax | 55.4 ng/mL
CC[C@H](C)[C@H](NC(=O)[C@H](CCCCN)NC(=O)[C@H](CC(C)C)NC(=O)[C@H](Cc1ccccc1)NC(=O)[C@@H](NC(=O)[C@H](CC(N)=O)NC(=O)[C@H](CCCNC(=N)N)NC(=O)[C@H](CO)NC(=O)[C@@H](N)CC(=O)O)[C@@H](C)CC)C(=O)N[C@@H](CCCCN)C(=O)N[C@@H](Cc1ccccc1)C(=O)N[C@@H](CCCCN)C(=O)N[C@@H](CCCCN)C(=O)N[C@@H](CCCCN)C(=O)O | trypsin | stability |  | 0.33 mM, pH 7.4 |  | half-life | 3 h
CC[C@@H]([C@H](C)O)n1ncn(-c2ccc(N3CCN(c4ccc(OC[C@@H]5CO[C@@](Cn6cncn6)(c6ccc(F)cc6F)C5)cc4)CC3)cc2)c1=O | lenvatinib metabolism | inhibitor | rat liver microsomes | 30 min, pH 7.4, together with: lenvatinib substrate |  | IC50 | 2.4 µM
COc1cc2c(CCNC(C)=O)c[nH]c2cc1O | Sulfotransferase 1A2 (Homo sapiens, UniProt P50226) | substrate | purified recombinant enzyme | 10 µM, 10 min, pH 7.0, 37 °C |  | specific activity | 1.33 ± 0.04 nmol/min/mg
CC1(C)CCC2(CC1)N[C@@H](C(=O)N[C@@H]1CC[C@@H](C(N)=O)OC1)[C@H](c1ccnc(Cl)c1F)[C@]21C(=O)Nc2cc(Cl)ccc21 | ATP-dependent translocase ABCB1 (ABCB1, Homo sapiens, UniProt P08183) |  | Caco-2 monolayers | 10 µM, 120 min, no inhibitor |  | Papp B to A | 17.3 ×10⁻⁶ cm/s
CC(C)CCC[C@@H](C)[C@H]1CC[C@H]2[C@@H]3[C@H](O)CC4=CC(=O)CC[C@]4(C)[C@H]3CC[C@]12C | 7-alpha-hydroxycholest-4-en-3-one 12-alpha-hydroxylase (Homo sapiens, UniProt Q9UNU6) | binding, Soret peak shift |  |  |  | maximal absorbance change | 0.0076
CC[C@H]1[C@@H](O)[C@@H]2[C@H](CC[C@]3(C)[C@@H]([C@H](C)CCNC(=O)NS(=O)(=O)c4ccc(C(C)(C)C)cc4)CC[C@@H]23)[C@@]2(C)CC[C@@H](O)C[C@@H]12 | Cytochrome P450 3A4 (CYP3A4, Homo sapiens, UniProt P08684) |  | human, plasma | dose not given, together with: fluconazole |  | Cmax mean | 60.1 ng/mL
CC[C@H](C)[C@H](NC(=O)[C@H](Cc1ccc(O)cc1)NC(=O)[C@@H](NC(=O)[C@@H](N)CCCN=C(N)N)C(C)C)C(=O)N[C@@H](Cc1c[nH]cn1)C(=O)N1CCC[C@H]1C(=O)N[C@@H](Cc1ccccc1)C(=O)O | trypsin | LC-MS |  | 20 µM, 30 min, pH 7.4, 25 °C |  | proteolytic conversion | 57.6 ± 3.2%
[H]/N=C(/NCCCCC)N/N=C/c1c[nH]c2ccc(OC)cc12 | Toxoplasma gondii | parasite growth | HFF, bradyzoite, glutamine-induced |  |  | EC50 | 19.9 µM
Cc1cc(Nc2ncnc3ccc(NC4=NC(C)(C)CO4)cc23)ccc1Oc1ccn2ncnc2c1 | CYP2C8 | substrate | human, plasma | oral, 300 mg single dose, day 1 |  | geometric mean AUC(0-last) | 2240 ng·h/mL
Cc1oc2ccccc2c1Cc1cc(I)c(OCC(=O)O)c(I)c1 | Voltage-gated inwardly rectifying potassium channel KCNH2 (KCNH2, Homo sapiens, UniProt Q12809) | potassium current, patch clamp | SH-SY5Y endogenous hERG | 10 µM | reference: control | activation V1/2 shift | -13 ± 2.5 mV
CCc1nc(N)nc(N)c1-c1ccc(Cl)cc1 | MATE1/MATE2-K | inhibitor |  |  |  | Ki | 0.0344 µM
CCn1ncc2c1-c1cnc(N)c(c1)O[C@H](C)c1cc(F)ccc1-c1nn(C)nc1C2 | CD74-ROS1 (CD74/ROS1, Homo sapiens, UniProt P04233+P08922, G2032R) |  | Balb/c nude mice, intracranial CD74-ROS1 xenograft | 3 mg/kg twice daily, mean |  | body weight gain | 5%
Cc1n[nH]c(C)c1C=C(C#N)C(=O)Nc1ccc(SC(F)F)cc1 | UCHL1 | covalent, intact protein LC-MS |  | 12.5 µM |  | labelling | 17.9%
C[C@@H](c1ncncc1F)[C@](O)(Cn1cncn1)c1ccc(F)cc1F | lenvatinib metabolism | inhibitor | rat liver microsomes | 30 min, pH 7.4, together with: lenvatinib substrate |  | IC50 | 1.3 µM
CCc1nc(N)nc(N)c1-c1ccc(Cl)cc1 | human MATE1/MATE2-K | inhibitor, refers to: N1-methyladenosine renal clearance | human, plasma | oral, from plasma Cmax |  | Ki | 3.84 ± 2.64 µM
CC(C)Oc1cccc(C(=O)C2CCCN(Cc3cnn(C(C)C)c3)C2)c1 (stereo not shown) | Trypanosoma cruzi | reporter translation, Renilla luciferase mRNA translation | cell-free extract | 40 µM | reference: DMSO | inhibition | -6.7%
C=CC(=O)Nc1cc(SCc2ccccc2C)ncn1 | UCHL1 | covalent, intact protein LC-MS |  | 12.5 µM |  | labelling | 18.6%
CCOc1cc(CC(=O)N[C@@H](CC(C)C)c2ccccc2N2CCCCC2)ccc1C(=O)O | CYP2C8 | substrate | human, plasma | 0.5 mg, day 1 |  | geometric mean Cmax | 7.34 ng/mL
CC(C)=CCc1cc2c(cc1O)O[C@H](c1ccc(O)cc1)CC2=O | UDP-glucuronosyltransferase 1A7 (UGT1A7, Homo sapiens, UniProt Q9HAW7) | glucuronidation, substrate | recombinant enzyme | pH 7.4 |  | CLint | 536 µL/min/mg
C[C@@H](c1nc(-c2ccc(C#N)cc2)cs1)[C@](O)(Cn1cncn1)c1cc(F)ccc1F | lenvatinib metabolism | inhibitor | human liver microsomes | 30 min, pH 7.4, together with: lenvatinib substrate |  | IC50 | 3.62 µM
Nc1ccn([C@@H]2O[C@H](COP(=O)(O)OP(=O)(O)O)[C@@H](O)[C@H]2O)c(=O)n1 | Ribonuclease pancreatic (RNASE1, Bos taurus, UniProt P61823) | native MS, single-point |  | 0.2 µM |  | Kd | 4 ± 0.2 µM

A few entries again:
Structure (SMILES) | target or system | test | system | setting | how to read | quantity | value
C=CC(=O)Nc1cc(SCc2ccccc2C)ncn1 | UCHL1 | covalent, intact protein LC-MS |  | 12.5 µM |  | labelling | 18.6%
Cc1n[nH]c(C)c1C=C(C#N)C(=O)Nc1ccc(SC(F)F)cc1 | UCHL1 | covalent, intact protein LC-MS |  | 12.5 µM |  | labelling | 17.9%
CC(C)Oc1cccc(C(=O)C2CCCN(Cc3cnn(C(C)C)c3)C2)c1 (stereo not shown) | Trypanosoma cruzi | reporter translation, Renilla luciferase mRNA translation | cell-free extract | 40 µM | reference: DMSO | inhibition | -6.7%
CC[C@H](C)[C@H](NC(=O)[C@H](CCCCN)NC(=O)[C@H](CC(C)C)NC(=O)[C@H](Cc1ccccc1)NC(=O)[C@@H](NC(=O)[C@H](CC(N)=O)NC(=O)[C@H](CCCNC(=N)N)NC(=O)[C@H](CO)NC(=O)[C@@H](N)CC(=O)O)[C@@H](C)CC)C(=O)N[C@@H](CCCCN)C(=O)N[C@@H](Cc1ccccc1)C(=O)N[C@@H](CCCCN)C(=O)N[C@@H](CCCCN)C(=O)N[C@@H](CCCCN)C(=O)O | trypsin | stability |  | 0.33 mM, pH 7.4 |  | half-life | 3 h
